Measurements of several laboratories.
Protocols differ between the studies behind these lines. ± marks the error that the study gave.
ADCYAP1R1: Pituitary adenylate cyclase-activating polypeptide type I receptor (ADCYAP1R1, Homo sapiens, UniProt P41586)
Sequence of UniProt P41586 (whole entry, looked up): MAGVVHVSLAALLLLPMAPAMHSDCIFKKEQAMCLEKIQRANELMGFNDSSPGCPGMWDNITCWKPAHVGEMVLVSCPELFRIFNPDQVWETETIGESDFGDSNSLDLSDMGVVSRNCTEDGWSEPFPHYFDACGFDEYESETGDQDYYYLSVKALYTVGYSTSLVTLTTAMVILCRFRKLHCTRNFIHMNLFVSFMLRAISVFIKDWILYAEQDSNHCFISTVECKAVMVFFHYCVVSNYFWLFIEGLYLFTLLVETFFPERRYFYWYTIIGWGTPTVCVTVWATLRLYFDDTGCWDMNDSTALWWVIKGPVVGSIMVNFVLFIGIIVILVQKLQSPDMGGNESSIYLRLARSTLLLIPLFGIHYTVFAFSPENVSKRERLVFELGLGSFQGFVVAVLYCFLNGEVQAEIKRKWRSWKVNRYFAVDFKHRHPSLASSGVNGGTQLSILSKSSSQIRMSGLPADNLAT
sdiA: Regulatory protein SdiA (sdiA, Escherichia coli, UniProt P07026)
Sequence of UniProt P07026 (whole entry, looked up): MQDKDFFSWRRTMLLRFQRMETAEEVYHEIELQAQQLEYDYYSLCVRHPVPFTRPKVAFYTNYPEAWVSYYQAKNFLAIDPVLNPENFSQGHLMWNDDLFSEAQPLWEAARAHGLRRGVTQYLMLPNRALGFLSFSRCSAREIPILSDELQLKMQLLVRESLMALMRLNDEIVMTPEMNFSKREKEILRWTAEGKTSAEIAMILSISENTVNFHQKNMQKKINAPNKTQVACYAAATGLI
Sequence of UniProt P50391 (whole entry, looked up): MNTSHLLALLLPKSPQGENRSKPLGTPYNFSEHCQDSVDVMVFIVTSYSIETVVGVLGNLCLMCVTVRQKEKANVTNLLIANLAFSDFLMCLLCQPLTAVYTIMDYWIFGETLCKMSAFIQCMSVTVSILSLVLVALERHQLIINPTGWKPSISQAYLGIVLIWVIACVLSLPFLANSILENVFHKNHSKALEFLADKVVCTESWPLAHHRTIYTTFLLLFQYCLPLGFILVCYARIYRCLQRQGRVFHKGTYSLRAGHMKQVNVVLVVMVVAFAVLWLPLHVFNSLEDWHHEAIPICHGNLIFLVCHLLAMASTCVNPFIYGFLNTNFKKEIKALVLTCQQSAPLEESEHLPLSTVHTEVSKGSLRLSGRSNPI
Sequence of UniProt P21554 (whole entry, unmodified, looked up): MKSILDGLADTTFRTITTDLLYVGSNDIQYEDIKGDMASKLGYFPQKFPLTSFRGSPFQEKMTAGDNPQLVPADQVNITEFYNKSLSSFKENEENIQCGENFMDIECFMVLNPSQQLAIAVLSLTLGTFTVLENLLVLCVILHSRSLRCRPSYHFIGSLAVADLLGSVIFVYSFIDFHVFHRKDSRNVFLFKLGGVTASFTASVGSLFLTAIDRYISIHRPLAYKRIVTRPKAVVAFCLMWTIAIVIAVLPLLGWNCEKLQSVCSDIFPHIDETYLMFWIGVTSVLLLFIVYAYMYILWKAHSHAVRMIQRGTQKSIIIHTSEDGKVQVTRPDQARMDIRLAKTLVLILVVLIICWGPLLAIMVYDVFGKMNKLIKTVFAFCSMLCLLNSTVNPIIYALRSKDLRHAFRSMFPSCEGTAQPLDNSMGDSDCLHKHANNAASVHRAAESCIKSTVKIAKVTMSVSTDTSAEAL
Sequence of UniProt P54941 (whole entry, looked up): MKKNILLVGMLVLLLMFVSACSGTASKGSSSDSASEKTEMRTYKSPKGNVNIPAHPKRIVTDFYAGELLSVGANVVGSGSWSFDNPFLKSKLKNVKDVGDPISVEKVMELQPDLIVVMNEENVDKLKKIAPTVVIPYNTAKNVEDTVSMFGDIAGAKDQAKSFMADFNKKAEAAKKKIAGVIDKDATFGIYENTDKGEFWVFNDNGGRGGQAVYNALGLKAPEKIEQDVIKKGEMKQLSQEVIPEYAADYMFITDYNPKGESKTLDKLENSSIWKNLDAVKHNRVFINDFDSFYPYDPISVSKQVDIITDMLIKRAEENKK

| Compound | target or system | assay | system | conditions | measurement | result |
| --- | --- | --- | --- | --- | --- | --- |
| CSCC[C@H](NC(=O)[C@H](CCC(N)=O)NC(=O)[C@H](CCCCN)NC(=O)[C@H](CCCNC(=N)N)NC(=O)[C@H](Cc1ccc(O)cc1)NC(=O)[C@H](CCCNC(=N)N)NC(=O)[C@H](CO)NC(=O)[C@H](Cc1ccc(O)cc1)NC(=O)[C@H](CO)NC(=O)[C@H](CC(=O)O)NC(=O)[C@@H](NC(=O)[C@@H](N)Cc1ccccc1)[C@@H](C)O)C(=O)N[C@@H](C)C(=O)N[C@H](C(=O)N[C@@H](CCCCN)C(=O)N[C@@H](CCCCN)C(=O)N[C@@H](Cc1ccc(O)cc1)C(=O)N[C@@H](CC(C)C)C(=O)N[C@@H](C)C(=O)N[C@@H](C)C(=O)N[C@H](C(=O)N[C@@H](CC(C)C)C(=O)NCC(=O)N[C@@H](CCCCN)C(=O)N[C@@H](CCCNC(=N)N)C(=O)N[C@@H](Cc1ccc(O)cc1)C(=O)N[C@@H](CCCCN)C(=O)N[C@@H](CCC(N)=O)C(=O)N[C@@H](CCCCn1cc(C[C@H](NC(=O)CNC(=O)[C@H](CO)NC(=O)[C@H](CCCNC(=N)N)NC(=O)[C@H](CO)NC(=O)[C@H](CC(C)C)NC(=O)[C@H](CC(C)C)NC(=O)CNC(=O)[C@H](C)NC(=O)[C@H](CC(C)C)NC(=O)[C@H](CCCNC(=N)N)NC(=O)[C@H](Cc2c[nH]cn2)NC(=O)[C@@H](NC(=O)[C@@H](N)C(C)C)[C@@H](C)O)C(=O)N[C@H](C(=O)N[C@H](C(=O)N[C@@H](CCCCN)C(=O)N[C@@H](CC(N)=O)C(=O)N[C@@H](CC(N)=O)C(=O)N[C@@H](Cc2ccccc2)C(=O)N[C@H](C(=O)N2CCC[C@H]2C(=O)N[C@H](C(=O)N[C@@H](CC(N)=O)C(=O)N[C@H](C(=O)NCC(=O)N[C@@H](CO)C(=O)N[C@@H](CCCCN)C(=O)N[C@@H](C)C(=O)N[C@@H](Cc2ccccc2)C(N)=O)C(C)C)[C@@H](C)O)C(C)C)C(C)C)C(C)C)nn1)C(=O)N[C@H](C(=O)N[C@@H](CCCCN)C(=O)N[C@@H](CC(N)=O)C(=O)N[C@@H](CCCCN)C(N)=O)C(C)C)C(C)C)C(C)C | ADCYAP1R1 | cAMP, antagonist |  |  | Kb | > 10000 nM |
| CCCCCCCCCC(=O)CC(=O)NC1CCSC1=O (stereo not shown) | sdiA |  |  |  | EC50 | 0.8 nM |
| COc1ccc(NC(=O)N2CCCCN3[C@H](CN(C)C)[C@H](c4ccc(C#Cc5ccccc5)cc4)[C@@H]3C2)cc1 | Toxoplasma gondii | tachyzoite growth, luciferase | ME49-Fluc |  | EC50 | 48 nM |
| CSCC[C@H](NC(=O)[C@H](CCC(N)=O)NC(=O)[C@H](CCCCN)NC(=O)[C@H](CCCNC(=N)N)NC(=O)[C@H](Cc1ccc(O)cc1)NC(=O)[C@H](CCCNC(=N)N)NC(=O)[C@H](CO)NC(=O)[C@H](Cc1ccc(O)cc1)NC(=O)[C@H](CO)NC(=O)[C@H](CC(=O)O)NC(=O)[C@@H](NC(=O)[C@@H](N)Cc1ccccc1)[C@@H](C)O)C(=O)N[C@@H](C)C(=O)N[C@H](C(=O)N[C@@H](CCCCN)C(=O)N[C@@H](CCCCn1cc(C[C@H](NC(=O)CNC(=O)[C@H](CO)NC(=O)[C@H](CCCNC(=N)N)NC(=O)[C@H](CO)NC(=O)[C@H](CC(C)C)NC(=O)[C@H](CC(C)C)NC(=O)CNC(=O)[C@H](C)NC(=O)[C@H](CC(C)C)NC(=O)[C@H](CCCNC(=N)N)NC(=O)[C@H](Cc2c[nH]cn2)NC(=O)[C@@H](NC(=O)[C@@H](N)C(C)C)[C@@H](C)O)C(=O)N[C@H](C(=O)N[C@H](C(=O)N[C@@H](CCCCN)C(=O)N[C@@H](CC(N)=O)C(=O)N[C@@H](CC(N)=O)C(=O)N[C@@H](Cc2ccccc2)C(=O)N[C@H](C(=O)N2CCC[C@H]2C(=O)N[C@H](C(=O)N[C@@H](CC(N)=O)C(=O)N[C@H](C(=O)NCC(=O)N[C@@H](CO)C(=O)N[C@@H](CCCCN)C(=O)N[C@@H](C)C(=O)N[C@@H](Cc2ccccc2)C(N)=O)C(C)C)[C@@H](C)O)C(C)C)C(C)C)C(C)C)nn1)C(=O)N[C@@H](Cc1ccc(O)cc1)C(=O)N[C@@H](CC(C)C)C(=O)N[C@@H](C)C(=O)N[C@@H](C)C(=O)N[C@H](C(=O)N[C@@H](CC(C)C)C(=O)NCC(=O)N[C@@H](CCCCN)C(=O)N[C@@H](CCCNC(=N)N)C(=O)N[C@@H](Cc1ccc(O)cc1)C(=O)N[C@@H](CCCCN)C(=O)N[C@@H](CCC(N)=O)C(=O)N[C@@H](CCCNC(=N)N)C(=O)N[C@H](C(=O)N[C@@H](CCCCN)C(=O)N[C@@H](CC(N)=O)C(=O)N[C@@H](CCCCN)C(N)=O)C(C)C)C(C)C)C(C)C | ADCYAP1R1 | cAMP, antagonist |  |  | Kb | > 10000 nM |
| Cc1ccc2c(C(C[N+](=O)[O-])c3cccs3)c(-c3ccccc3)[nH]c2c1 (stereo not shown) | CNR1 (Homo sapiens, UniProt P21554, I245L) | β-arrestin recruitment, agonist, luciferase |  |  | EC50 | 320 nM |
| O=C1CCC(=O)N([O-])CCCCCNC(=O)CCC(=O)N([O-])CCCCCNC(=O)CCC(=O)N([O-])CCCCCN1.[Fe+3] | Iron(3+)-hydroxamate-binding protein YxeB (yxeB, Bacillus subtilis, UniProt P54941) | binding, Trp fluorescence quenching |  | pH 7.4, with: yxeB 100 nM | Kd | 28 ± 9 nM |
| CSCC[C@H](NC(=O)[C@H](CCC(N)=O)NC(=O)[C@H](CCCCN)NC(=O)[C@H](CCCNC(=N)N)NC(=O)[C@H](Cc1ccc(O)cc1)NC(=O)[C@H](CCCNC(=N)N)NC(=O)[C@H](CO)NC(=O)[C@H](Cc1ccc(O)cc1)NC(=O)[C@H](CO)NC(=O)[C@H](CC(=O)O)NC(=O)[C@@H](NC(=O)[C@@H](N)Cc1ccccc1)[C@@H](C)O)C(=O)N[C@@H](C)C(=O)N[C@H](C(=O)N[C@@H](CCCCN)C(=O)N[C@@H](CCCCN)C(=O)N[C@@H](Cc1ccc(O)cc1)C(=O)N[C@@H](CC(C)C)C(=O)N[C@@H](C)C(=O)N[C@@H](C)C(=O)N[C@H](C(=O)N[C@@H](CC(C)C)C(=O)NCC(=O)N[C@@H](CCCCN)C(=O)N[C@@H](CCCNC(=N)N)C(=O)N[C@@H](Cc1ccc(O)cc1)C(=O)N[C@@H](CCCCN)C(=O)N[C@@H](CCC(N)=O)C(=O)N[C@@H](CCCNC(=N)N)C(=O)N[C@H](C(=O)N[C@@H](CCCCN)C(=O)N[C@@H](CC(N)=O)C(=O)N[C@@H](CCCCn1cc(C[C@H](NC(=O)CNC(=O)[C@H](CO)NC(=O)[C@H](CCCNC(=N)N)NC(=O)[C@H](CO)NC(=O)[C@H](CC(C)C)NC(=O)[C@H](CC(C)C)NC(=O)CNC(=O)[C@H](C)NC(=O)[C@H](CC(C)C)NC(=O)[C@H](CCCNC(=N)N)NC(=O)[C@H](Cc2c[nH]cn2)NC(=O)[C@@H](NC(=O)[C@@H](N)C(C)C)[C@@H](C)O)C(=O)N[C@H](C(=O)N[C@H](C(=O)N[C@@H](CCCCN)C(=O)N[C@@H](CC(N)=O)C(=O)N[C@@H](CC(N)=O)C(=O)N[C@@H](Cc2ccccc2)C(=O)N[C@H](C(=O)N2CCC[C@H]2C(=O)N[C@H](C(=O)N[C@@H](CC(N)=O)C(=O)N[C@H](C(=O)NCC(=O)N[C@@H](CO)C(=O)N[C@@H](CCCCN)C(=O)N[C@@H](C)C(=O)N[C@@H](Cc2ccccc2)C(N)=O)C(C)C)[C@@H](C)O)C(C)C)C(C)C)C(C)C)nn1)C(N)=O)C(C)C)C(C)C)C(C)C | ADCYAP1R1 | cAMP, antagonist |  |  | Kb | > 10000 nM |
| CC[C@H](C)[C@H](NC(=O)[C@@H](NC=O)C(C)(C)C)C(=O)N[C@H](C(=O)N[C@H](C(=O)N[C@H](C(=O)NCC(=O)N1CCC[C@H]1C(=O)N[C@@H](Cc1c[nH]cn1)C(=O)N[C@@H](CCC(=O)O)C(=O)N[C@@H](CCC(=O)O)C(=O)N[C@@H](Cc1ccc(O)cc1)C(=O)N[C@@H](CCCCNC(=S)Nc1ccc2c(c1)C(=O)OC21c2ccc(O)cc2Oc2cc(O)ccc21)C(N)=O)[C@@H](C)O)[C@@H](C)CC)C(C)(C)C | Protein phosphatase 3 catalytic subunit alpha, with calcineurin B (PPP3CA, Homo sapiens, UniProt Q08209) | binding, fluorescence polarisation |  | GST-calcineurin, with: FITC-labelled peptide | Kd | > 5800 nM |
| CCCCCCC(=O)N[C@H]1CCOC1=O | sdiA |  |  |  | EC50 | 2.64 nM |
| CC(=O)N[C@@H](CCCNC(=N)N)C(=O)N[C@@H](Cc1ccc(O)cc1)C(=O)N[C@H]1CCCNC(=N)NC(=O)NCCCCNC(=O)[C@H](Cc2ccc(O)cc2)NC(=O)[C@H](CCCNC(=N)N)NC(=O)[C@H](CC(C)C)NC1=O | NPY4R (Homo sapiens, UniProt P50391) | calcium signal, antagonist |  |  | Kb | 1100 nM |

A few entries again:
| Compound | target or system | assay | system | conditions | measurement | result |
| --- | --- | --- | --- | --- | --- | --- |
| O=C1CCC(=O)N([O-])CCCCCNC(=O)CCC(=O)N([O-])CCCCCNC(=O)CCC(=O)N([O-])CCCCCN1.[Fe+3] | Iron(3+)-hydroxamate-binding protein YxeB (yxeB, Bacillus subtilis, UniProt P54941) | binding, Trp fluorescence quenching |  | pH 7.4, with: yxeB 100 nM | Kd | 28 ± 9 nM |
